# Experimental data of several laboratories.
# ± gives the spread as reported.
Compound,assay,test system,setting,kinetic solubility
O=C(Nc1cncc(-c2nc3ccccc3o2)c1)c1cc([N+](=O)[O-])c(F)cc1Cl,,phosphate buffer,pH 7.4,< 1.6 µM
Cc1nc2c(Cl)cccn2c1NC(=O)c1ccc(-c2ccc(N(C)C)cc2)o1,,aqueous buffer,"90 min, pH 7.4, 25 °C, 0.1% DMSO",74.8 ± 4.4 µM
Cc1ccc(C2CC(=O)N3CN(c4ccc(Br)cc4)CSC3=C2C#N)o1 (stereo not shown),,PBS,"24 h, pH 7.4, 21 °C, 2.0% DMSO",135 µM
CCCCCCCC(=O)c1cc(OC)c(OC)c(OC)c1CC(=O)OCC,,aqueous buffer,"90 min, pH 7.4, 25 °C, 0.1% DMSO",14.9 ± 2.6 µM
COc1cc2[nH]c(C)c(-c3ccc(C(C)(C)C)cc3)c(=O)c2cc1Cl,,,pH 7.4,< 2 µM
FC(F)(F)c1ccccc1-c1nc(N2CCC(c3ccccn3)C2)c2ccccc2n1 (stereo not shown),,Japanese Pharmacopoeia disintegration test solution 2,pH 6.8,2 µg/mL
Clc1ccc(COc2cncc(-c3cnn(C4CCNCC4)c3)c2)c(Cl)c1,,phosphate buffer,"pH 7.4, first insoluble concentration",60 µM
Clc1ccc2nc(-c3ccccn3)c(Nc3ccc4c(c3)OCCO4)n2c1,shake flask HPLC-UV,sodium phosphate buffer,"24 h, pH 7.4, 2% DMSO",0.38 µg/mL
CN1CCN(c2nc(-c3ccccn3)nc3ccccc23)CC1,,Japanese Pharmacopoeia disintegration test solution 2,pH 6.8,82 µg/mL
Cc1ccc(-c2nc3ccccc3s2)cc1NC(=O)c1cc([N+](=O)[O-])c(NCCNC(=O)OC(C)(C)C)cc1Cl,,phosphate buffer,pH 7.4,< 1.56 µM
COc1cc2[nH]c(C)c(-c3ccc(C(C)C)cc3)c(=O)c2cc1Cl,,,pH 7.4,< 2 µM
COc1ccc(C(=O)N2CCCCC2)cc1,,PBS,"2 h, pH 7.4, 25 °C",341 µM
COc1ccc(/C=N\NC(=O)c2cc(O)c(O)c(O)c2)cc1COc1ccc(C(=O)OCC(C)C)cc1,,PBS,"24 h, pH 7.4, 21 °C, 2.0% DMSO",7.5 µM
COc1cc2[nH]c(C)c(-c3cc4ccccc4o3)c(=O)c2cc1Cl,,,pH 7.4,< 2 µM
CS(=O)(=O)c1cnc(NS(=O)(=O)c2ccc(N)cc2)nc1.Cl,,PBS,"2 h, pH 7.4, 25 °C, 2% DMSO",391 µM
c1ccc(-c2nc(N3CCCC3)c3ccccc3n2)nc1,,Japanese Pharmacopoeia disintegration test solution 2,pH 6.8,79 µg/mL
NS(=O)(=O)c1nnc(NC(=O)CCC2CCC(F)(F)CC2)s1,,PBS,pH 7.4,197 µM
COc1ccn2c(Nc3ccc(F)cn3)c(-c3ccccn3)nc2c1,shake flask HPLC-UV,sodium phosphate buffer,"24 h, pH 2.0, 2% DMSO",76.3 µg/mL
CCCCn1c(NS(=O)(=O)c2ccc(C)cc2)c(S(=O)(=O)c2ccccc2)c2nc3ccccc3nc21,,PBS,"24 h, pH 7.4, 21 °C, 2.0% DMSO",11.3 µM
CCN(CC)CCNC(=O)c1cc(S(C)(=O)=O)ccc1OC,,PBS,"2 h, pH 7.4, 25 °C, 2% DMSO",394 µM
COc1cccc(-c2ccc(NC(=O)C3=C(C(=O)O)CCC3)c(F)c2)c1,,aqueous buffer,"90 min, pH 7.4, 25 °C, 0.1% DMSO",91.8 ± 9.6 µM
COc1c(/C=C/c2ccc(NS(C)(=O)=O)cc2)cc(-n2ccc(=O)[nH]c2=O)cc1C(C)(C)C,chemiluminescent nitrogen detection,water,"pH 7.2, 23 °C",-4.68 log S
CN(C)C(=O)CCc1nc(-c2ccccc2)c(-c2ccccc2)o1,,aqueous buffer,"90 min, pH 7.4, 25 °C, 0.1% DMSO",50.3 ± 2.7 µM
Cc1ccc(-c2nc3ccccc3o2)cc1NC(=O)c1cc([N+](=O)[O-])c(N2CCN(C)CC2)cc1Cl,,phosphate buffer,pH 7.4,< 1.6 µM
Cc1onc(-c2ccccc2)c1-c1ccc(S(N)(=O)=O)cc1,,aqueous buffer,"90 min, pH 7.4, 25 °C, 0.1% DMSO",58.3 ± 1.5 µM
COc1cc2[nH]c(C)c(-c3ccncc3)c(=O)c2cc1Cl,,,pH 7.4,6 to 12 µM
NC1CCc2nc(-c3cccnc3)nc(Nc3cccc(F)c3)c2C1 (stereo not shown),,PBS with 2.5% DMSO,"24 h, pH 7.4",240 ± 13 µM
CCn1ncc2nc(-c3ccccn3)nc(N3CCC(c4ccccn4)C3)c21 (stereo not shown),,Japanese Pharmacopoeia disintegration test solution 2,pH 6.8,89 µg/mL
O=C(N1CCCCC1)C12CC(c3ccccc3)(C1)C2,,PBS with DMSO,"2 h, pH 7.4, 25 °C",261 µM
Fc1cccc(Nc2nc(-c3ccccn3)nc3ccccc23)c1,,Japanese Pharmacopoeia disintegration test solution 2,pH 6.8,1 µg/mL
Cn1nc2c(=O)n(C3CC3)ccc2c1[C@](O)(c1cnc(C(F)(F)F)c(Cl)c1)C1CC1,nephelometry,phosphate buffer,"30 min, pH 6.5, 1% DMSO",12.5 to 25 µM
COc1cc2[nH]c(C)c(-c3ccc(Oc4ccccc4)cc3)c(=O)c2cc1Cl,,,pH 7.4,< 2 µM
Cc1[nH]c(C)c(S(=O)(=O)Nc2ccc(C(F)(F)F)c(Cl)c2)c1C(=O)N(C)C,,,,> 100 µM
COc1cc2[nH]c(C)c(-c3c(C)noc3C)c(=O)c2cc1Cl,,,pH 7.4,≥ 20 µM
CCCCC/C=C\C/C=C\CCCCCCCC(=O)O.Cc1cc(/C=C/C#N)cc(C)c1Nc1ccnc(Nc2ccc(C#N)cc2)n1,,Peceol,,< 50000 µg/mL
Cc1ccc(-c2nc3ccccc3s2)cc1NC(=O)c1cc([N+](=O)[O-])c(N(C)CCN(C)C)cc1Cl,,phosphate buffer,pH 7.4,< 1.6 µM
c1ccc(-c2nc(N3CCc4ncccc4C3)c3ccccc3n2)nc1,,Japanese Pharmacopoeia disintegration test solution 2,pH 6.8,78 µg/mL
COc1cnc(NS(=O)(=O)c2ccc(N)cc2)nc1,,PBS,"2 h, pH 7.4, 25 °C",362 µM
COc1cc2[nH]c(C)c(-c3ccc(N4CCN(C)CC4)nc3)c(=O)c2cc1Cl,,,pH 7.4,≥ 20 µM
Cn1cc(-c2nc(N3CCC(c4ccccn4)C3)c3ccccc3n2)cn1 (stereo not shown),,Japanese Pharmacopoeia disintegration test solution 2,pH 6.8,79 µg/mL
CCOC(=O)[C@](CC)(CCCS(=O)(=O)CCOCCOCCNC(=O)OC(C)(C)C)NC(=O)c1ccc(C2CC2)c(Cc2ccc(F)cc2)n1,,aqueous buffer with DMSO,,< 0.4 µg/mL
CC(Nc1nc(-c2ccccn2)nc2ccccc12)c1ccccn1 (stereo not shown),,Japanese Pharmacopoeia disintegration test solution 2,pH 6.8,80 µg/mL
CC[C@H](C)C(=O)O[C@H]1C[C@H](O)C=C2C=C[C@H](C)[C@H](CC[C@@H](O)C[C@@H](O)CC(=O)O)[C@H]21,,aqueous buffer,"90 min, pH 7.4, 25 °C, 0.1% DMSO",≥ 100 µM
Cc1ccc(-c2nc3ccccc3o2)cc1NC(=O)c1cc([N+](=O)[O-])c(F)cc1Cl,,phosphate buffer,pH 7.4,< 1.6 µM
O=C(O)C[C@H](O)C[C@H](O)/C=C/c1c(C2CC2)nc2ccccc2c1-c1ccc(F)cc1,,aqueous buffer,"90 min, pH 7.4, 25 °C, 0.1% DMSO",≥ 100 µM
COc1cc2[nH]c(C)c(-c3ccc(-c4ccccc4)cc3)c(=O)c2cc1Cl,,,pH 7.4,< 2 µM
C=C(NC(=O)c1csc(-c2nc3c(cc2O)-c2nc(cs2)C(=O)N[C@@H]([C@@H](C)O)C(=O)N/C(=C\C)c2nc(cs2)C(=O)N[C@H]2C[C@H](O)C(=O)OCc4cccc5[nH]c(c(C)c45)C(=O)SC[C@H](NC(=O)c4csc2n4)c2nc-3cs2)n1)C(N)=O,HPLC,citrate buffer,"pH 6.0, 5% DMSO",0.0283 µg/mL
Cc1ccc2nc(-c3ccccn3)c(Nc3ccc4c(c3)OCCO4)n2c1,shake flask HPLC-UV,sodium phosphate buffer,"24 h, pH 2.0, 2% DMSO",71.7 µg/mL
Cc1ccc(-n2cccc2/C=C2\C(=N)N3N=C(c4ccco4)SC3=NC2=O)cc1,,PBS,"24 h, pH 7.4, 21 °C, 2.0% DMSO",8.7 µM

# Repeated from above:
Compound,assay,test system,setting,kinetic solubility
Cn1cc(-c2nc(N3CCC(c4ccccn4)C3)c3ccccc3n2)cn1 (stereo not shown),,Japanese Pharmacopoeia disintegration test solution 2,pH 6.8,79 µg/mL
CCOC(=O)[C@](CC)(CCCS(=O)(=O)CCOCCOCCNC(=O)OC(C)(C)C)NC(=O)c1ccc(C2CC2)c(Cc2ccc(F)cc2)n1,,aqueous buffer with DMSO,,< 0.4 µg/mL
Cc1ccc(-c2nc3ccccc3s2)cc1NC(=O)c1cc([N+](=O)[O-])c(NCCNC(=O)OC(C)(C)C)cc1Cl,,phosphate buffer,pH 7.4,< 1.56 µM
CS(=O)(=O)c1cnc(NS(=O)(=O)c2ccc(N)cc2)nc1.Cl,,PBS,"2 h, pH 7.4, 25 °C, 2% DMSO",391 µM
COc1ccn2c(Nc3ccc(F)cn3)c(-c3ccccn3)nc2c1,shake flask HPLC-UV,sodium phosphate buffer,"24 h, pH 2.0, 2% DMSO",76.3 µg/mL
FC(F)(F)c1ccccc1-c1nc(N2CCC(c3ccccn3)C2)c2ccccc2n1 (stereo not shown),,Japanese Pharmacopoeia disintegration test solution 2,pH 6.8,2 µg/mL
COc1cc2[nH]c(C)c(-c3c(C)noc3C)c(=O)c2cc1Cl,,,pH 7.4,≥ 20 µM
